Results of several laboratories.
Numbered parts are unrelated; each lists some results of a single study. Positions count from the first letter of the parent shown.
Sequence of UniProt P42685 (whole entry, looked up): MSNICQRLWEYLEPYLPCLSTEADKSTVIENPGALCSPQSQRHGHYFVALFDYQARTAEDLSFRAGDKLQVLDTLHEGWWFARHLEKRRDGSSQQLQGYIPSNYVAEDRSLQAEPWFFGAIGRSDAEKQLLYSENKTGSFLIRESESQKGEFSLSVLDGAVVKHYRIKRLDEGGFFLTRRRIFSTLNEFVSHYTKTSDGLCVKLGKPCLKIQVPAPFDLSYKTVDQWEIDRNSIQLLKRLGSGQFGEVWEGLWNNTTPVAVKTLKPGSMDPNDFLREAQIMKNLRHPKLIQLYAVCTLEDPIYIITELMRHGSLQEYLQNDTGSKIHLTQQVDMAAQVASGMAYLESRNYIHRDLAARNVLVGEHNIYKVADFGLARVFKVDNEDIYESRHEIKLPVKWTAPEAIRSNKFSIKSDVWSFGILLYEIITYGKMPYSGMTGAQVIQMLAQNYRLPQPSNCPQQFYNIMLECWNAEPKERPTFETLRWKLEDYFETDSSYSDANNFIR
Sequence of UniProt P22607 (whole entry, looked up): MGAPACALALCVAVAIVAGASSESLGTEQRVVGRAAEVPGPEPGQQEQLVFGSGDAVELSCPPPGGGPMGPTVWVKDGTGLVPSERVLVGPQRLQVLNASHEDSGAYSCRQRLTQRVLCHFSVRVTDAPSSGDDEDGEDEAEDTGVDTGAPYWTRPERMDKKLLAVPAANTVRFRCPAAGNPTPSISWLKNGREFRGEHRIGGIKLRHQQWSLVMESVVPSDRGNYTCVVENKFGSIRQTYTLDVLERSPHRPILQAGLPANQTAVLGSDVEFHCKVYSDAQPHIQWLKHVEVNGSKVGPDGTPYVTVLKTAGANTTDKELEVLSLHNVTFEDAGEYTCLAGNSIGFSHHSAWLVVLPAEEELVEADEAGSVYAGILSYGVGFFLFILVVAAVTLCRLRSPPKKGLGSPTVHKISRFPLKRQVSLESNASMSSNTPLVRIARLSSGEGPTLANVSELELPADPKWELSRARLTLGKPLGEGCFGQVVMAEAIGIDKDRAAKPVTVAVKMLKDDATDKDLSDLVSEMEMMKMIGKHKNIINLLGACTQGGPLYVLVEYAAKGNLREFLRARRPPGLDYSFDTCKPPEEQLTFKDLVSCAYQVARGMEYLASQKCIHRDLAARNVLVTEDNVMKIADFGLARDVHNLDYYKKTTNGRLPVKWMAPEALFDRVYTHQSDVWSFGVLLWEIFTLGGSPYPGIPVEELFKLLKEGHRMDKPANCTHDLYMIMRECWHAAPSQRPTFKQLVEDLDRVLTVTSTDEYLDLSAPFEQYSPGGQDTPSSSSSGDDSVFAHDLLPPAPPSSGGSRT
Sequence of UniProt Q8NI60 (whole entry, looked up): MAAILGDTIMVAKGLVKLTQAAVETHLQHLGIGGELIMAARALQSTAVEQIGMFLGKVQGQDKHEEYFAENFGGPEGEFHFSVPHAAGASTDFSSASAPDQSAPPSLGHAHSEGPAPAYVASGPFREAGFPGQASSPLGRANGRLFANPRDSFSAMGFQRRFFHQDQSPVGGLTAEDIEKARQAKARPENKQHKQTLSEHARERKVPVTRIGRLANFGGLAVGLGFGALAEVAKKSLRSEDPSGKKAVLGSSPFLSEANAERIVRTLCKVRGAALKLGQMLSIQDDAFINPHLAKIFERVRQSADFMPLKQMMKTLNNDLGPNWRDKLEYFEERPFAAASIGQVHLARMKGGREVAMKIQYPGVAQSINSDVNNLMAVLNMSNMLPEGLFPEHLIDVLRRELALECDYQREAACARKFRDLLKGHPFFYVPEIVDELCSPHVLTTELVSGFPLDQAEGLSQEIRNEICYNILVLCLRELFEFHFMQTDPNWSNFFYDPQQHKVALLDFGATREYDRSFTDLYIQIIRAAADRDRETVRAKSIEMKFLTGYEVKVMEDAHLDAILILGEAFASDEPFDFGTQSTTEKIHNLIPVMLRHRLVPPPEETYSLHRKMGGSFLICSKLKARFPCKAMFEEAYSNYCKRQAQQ
Sequence of UniProt P54764 (whole entry, looked up): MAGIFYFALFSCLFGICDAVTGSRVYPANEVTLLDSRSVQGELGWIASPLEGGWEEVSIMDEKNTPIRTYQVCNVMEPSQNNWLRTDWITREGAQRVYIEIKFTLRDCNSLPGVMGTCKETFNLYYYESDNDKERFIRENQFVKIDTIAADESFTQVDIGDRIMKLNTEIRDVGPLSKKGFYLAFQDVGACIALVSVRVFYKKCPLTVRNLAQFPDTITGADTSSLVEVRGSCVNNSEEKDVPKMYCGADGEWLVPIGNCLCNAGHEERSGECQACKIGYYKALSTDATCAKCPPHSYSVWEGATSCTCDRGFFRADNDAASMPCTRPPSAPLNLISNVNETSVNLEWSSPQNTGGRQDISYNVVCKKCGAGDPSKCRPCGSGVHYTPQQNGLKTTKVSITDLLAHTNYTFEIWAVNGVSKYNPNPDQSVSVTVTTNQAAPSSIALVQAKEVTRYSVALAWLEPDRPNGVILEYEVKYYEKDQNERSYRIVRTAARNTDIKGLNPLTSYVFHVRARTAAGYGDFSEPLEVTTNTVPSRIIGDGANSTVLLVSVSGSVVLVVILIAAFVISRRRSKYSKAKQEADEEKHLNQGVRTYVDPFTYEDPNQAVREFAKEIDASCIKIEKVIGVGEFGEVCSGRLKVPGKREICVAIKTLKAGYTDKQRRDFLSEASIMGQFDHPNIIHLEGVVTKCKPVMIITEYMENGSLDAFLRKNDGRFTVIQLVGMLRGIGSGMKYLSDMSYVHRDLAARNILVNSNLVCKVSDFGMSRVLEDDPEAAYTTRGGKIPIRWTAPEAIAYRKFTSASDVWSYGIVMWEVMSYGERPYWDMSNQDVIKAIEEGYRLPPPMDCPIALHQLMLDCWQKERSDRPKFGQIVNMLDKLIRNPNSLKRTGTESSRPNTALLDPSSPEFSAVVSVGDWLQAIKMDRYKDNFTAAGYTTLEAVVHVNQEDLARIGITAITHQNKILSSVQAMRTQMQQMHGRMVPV
Sequence of UniProt Q96PY6 (whole entry, looked up): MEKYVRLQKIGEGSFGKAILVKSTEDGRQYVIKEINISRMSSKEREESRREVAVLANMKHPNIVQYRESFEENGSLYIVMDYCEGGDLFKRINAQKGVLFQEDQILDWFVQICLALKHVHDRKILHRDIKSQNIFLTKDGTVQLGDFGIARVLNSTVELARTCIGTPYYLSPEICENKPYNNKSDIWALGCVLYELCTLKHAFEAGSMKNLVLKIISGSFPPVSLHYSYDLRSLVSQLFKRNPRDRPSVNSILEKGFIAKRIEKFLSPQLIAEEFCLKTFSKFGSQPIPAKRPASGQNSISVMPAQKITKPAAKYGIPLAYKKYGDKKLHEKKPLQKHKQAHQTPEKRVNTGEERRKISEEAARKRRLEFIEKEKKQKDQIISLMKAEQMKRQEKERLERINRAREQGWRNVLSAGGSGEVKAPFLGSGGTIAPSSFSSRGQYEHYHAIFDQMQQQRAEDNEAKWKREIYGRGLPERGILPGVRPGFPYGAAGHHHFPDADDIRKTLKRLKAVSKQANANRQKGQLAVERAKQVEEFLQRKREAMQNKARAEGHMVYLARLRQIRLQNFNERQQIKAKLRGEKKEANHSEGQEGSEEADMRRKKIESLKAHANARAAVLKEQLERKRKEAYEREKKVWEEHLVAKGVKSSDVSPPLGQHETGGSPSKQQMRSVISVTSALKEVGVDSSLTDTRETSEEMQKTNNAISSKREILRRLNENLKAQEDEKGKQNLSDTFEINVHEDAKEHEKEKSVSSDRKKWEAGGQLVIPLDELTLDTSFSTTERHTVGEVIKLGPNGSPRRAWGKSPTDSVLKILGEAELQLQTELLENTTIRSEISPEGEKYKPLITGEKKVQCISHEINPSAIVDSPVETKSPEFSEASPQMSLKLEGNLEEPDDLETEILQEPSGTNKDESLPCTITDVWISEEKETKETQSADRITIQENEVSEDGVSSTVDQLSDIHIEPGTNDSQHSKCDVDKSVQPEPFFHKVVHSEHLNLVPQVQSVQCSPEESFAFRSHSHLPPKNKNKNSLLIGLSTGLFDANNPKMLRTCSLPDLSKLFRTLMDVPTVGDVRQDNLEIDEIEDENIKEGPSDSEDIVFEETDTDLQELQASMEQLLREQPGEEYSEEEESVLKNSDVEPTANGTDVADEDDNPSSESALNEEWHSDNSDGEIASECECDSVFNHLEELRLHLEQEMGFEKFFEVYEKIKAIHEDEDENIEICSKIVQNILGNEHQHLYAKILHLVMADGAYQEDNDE
Sequence of UniProt P11362 (whole entry, looked up): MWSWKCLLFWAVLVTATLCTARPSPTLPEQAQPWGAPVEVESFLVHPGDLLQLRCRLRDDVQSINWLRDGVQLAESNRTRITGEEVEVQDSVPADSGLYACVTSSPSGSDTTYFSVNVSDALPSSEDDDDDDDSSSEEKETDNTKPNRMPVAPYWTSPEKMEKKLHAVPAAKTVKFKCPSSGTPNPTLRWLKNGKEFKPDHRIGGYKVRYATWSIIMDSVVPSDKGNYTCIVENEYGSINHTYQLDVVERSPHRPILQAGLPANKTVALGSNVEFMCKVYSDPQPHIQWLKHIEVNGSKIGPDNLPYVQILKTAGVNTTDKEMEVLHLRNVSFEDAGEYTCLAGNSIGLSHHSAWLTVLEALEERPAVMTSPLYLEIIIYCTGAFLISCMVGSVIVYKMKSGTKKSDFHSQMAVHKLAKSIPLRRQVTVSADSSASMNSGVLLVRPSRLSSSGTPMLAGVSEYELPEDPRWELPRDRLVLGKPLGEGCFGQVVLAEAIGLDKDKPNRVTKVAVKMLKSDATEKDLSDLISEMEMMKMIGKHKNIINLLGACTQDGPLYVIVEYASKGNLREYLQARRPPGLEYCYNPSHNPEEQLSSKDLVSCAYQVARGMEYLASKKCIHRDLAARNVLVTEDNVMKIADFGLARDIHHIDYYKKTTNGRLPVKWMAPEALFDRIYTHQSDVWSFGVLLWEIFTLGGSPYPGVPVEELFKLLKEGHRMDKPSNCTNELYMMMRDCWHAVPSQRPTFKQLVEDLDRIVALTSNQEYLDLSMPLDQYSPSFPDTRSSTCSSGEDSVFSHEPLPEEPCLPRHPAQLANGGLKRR

Study 1
SMILES: CCN(CC)C(=O)c1ccc(Nc2nc(OCC3CCCCC3)c3[nH]cnc3n2)cc1
Effect on: enzyme activity
Mode: inhibitor
Tested at: 0.5 µM
Relative to: control
target	remaining activity
JAK3 (Homo sapiens, UniProt P52333)	6.39%
MAP3K14 (Homo sapiens, UniProt Q99558)	132%
NEK1 (Homo sapiens, UniProt Q96PY6)	53.1%
MAP3K5 (Homo sapiens, UniProt Q99683)	96.9%
ABL2 (Homo sapiens, UniProt P42684)	67.8%
FGFR1 (Homo sapiens, UniProt P11362)	72.8%
FGFR3 (Homo sapiens, UniProt P22607)	66.9%
CSNK1G3 (Homo sapiens, UniProt Q9Y6M4)	61.7%
GRK7 (Homo sapiens, UniProt Q8WTQ7)	103%
MERTK (Homo sapiens, UniProt Q12866)	71.6%
FRK (Homo sapiens, UniProt P42685)	116%
LCK (Homo sapiens, UniProt P06239)	39.8%

Study 2
Structure (SMILES): C[C@H](c1ccc(F)cc1)N(Cc1cccc(C(=O)O)c1)C(=O)c1cnc2ccccc2c1
Method: competition with immobilised ligand
Tested at: 1 µM
target	effect on	remaining binding
PIP5K1C (Homo sapiens, UniProt O60331)	cell-free assay	100%
HIPK4 (Homo sapiens, UniProt Q8NE63)	cell-free assay	93%
FLT3 (Homo sapiens, UniProt P36888, F691L/ITD)	cell-free assay	100%
PIK3C2G (Homo sapiens, UniProt O75747)	cell-free assay	100%
FRK (Homo sapiens, UniProt P42685)	cell-free assay	77%
ACVRL1 (Homo sapiens, UniProt P37023)	binding	100%
CAMK1G (Homo sapiens, UniProt Q96NX5)	cell-free assay	100%
FGFR3 (Homo sapiens, UniProt P22607)	cell-free assay	82%
COQ8A (Homo sapiens, UniProt Q8NI60)	cell-free assay	85%
Tyrosine-protein kinase ABL1, phosphorylated (ABL1, Homo sapiens, UniProt P00519, H396P)	cell-free assay	100%
CAMK1D (Homo sapiens, UniProt Q8IU85)	cell-free assay	100%
PIP4K2C (Homo sapiens, UniProt Q8TBX8)	cell-free assay	81%
PRKCI (Homo sapiens, UniProt P41743)	cell-free assay	100%
ULK1 (Homo sapiens, UniProt O75385)	cell-free assay	86%
STK32B (Homo sapiens, UniProt Q9NY57)	cell-free assay	97%
PRKCE (Homo sapiens, UniProt Q02156)	cell-free assay	95%
STK32A (Homo sapiens, UniProt Q8WU08)	binding	100%
MARK1 (Homo sapiens, UniProt Q9P0L2)	cell-free assay	100%
PIK3CA (Homo sapiens, UniProt P42336, M1043I)	cell-free assay	100%
EPHA4 (Homo sapiens, UniProt P54764)	cell-free assay	92%

Study 3
Target: RNA binding protein fox-1 homolog 2, RRM domain, GST-SBP tag (RBFOX2, Homo sapiens, UniProt O43251-10, residues 100-194)
Method: RNA Bind-n-Seq
Form: RNA
Medium: in vitro
Tested at: 365 nM
Notes: natural RNA segment, single round, ends assumed
Relative to: no-protein control
Reading: higher = stronger binding
Constant ends, left off below: GGGAGUUCUACAGUCCGACGAUC … UGGAAUUCUCGGGUGCCAA
Target sequence (chain): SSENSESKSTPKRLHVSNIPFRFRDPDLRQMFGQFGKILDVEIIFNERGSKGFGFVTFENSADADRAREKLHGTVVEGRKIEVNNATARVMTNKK
Sequence	RBNS enrichment (R)
UUCAGCCACAGCUGUGAGCAGCUCUCUGCCAGCUAUGUGGCCAGGGACCACAAAACUACCAUGUGAGACUGUGGACCCCACCCACACAGGCCAGGGCAGAUGGCCAAGGG	0.581
CCUGUAAUCCCAGCUACUCGGGAGGCUGAGGUGGGAGAAUAGCUUGAACCUGGGAGGCAGAGGUUGUGGUGAGCCAAGAUCACGCCACUGCACUCCAGCCUGGGUGACAG	0.51
CAUCUCUUCCUUCCAUGUCUUGAUGUUAUGCAGGAAGUACAGACGUACUUUAAAUUUUUGUUAUGAAAUAAAAAAAAGAUGGGUUUUGUAAAAAUAAAAAAAAAAUAUUU	4.82
CUAAAGCCAUUGGCUGUAAUGAGUGUUACUGUGUGAGGCUUUGUGUAUGAGAUCUGUGCUGUAAGGCUCCCAGUGUUCCUUCAGCAUUAAUGCUUUCCCACCUGCUCCAA	0.886
UUCCACCUCGUGCACAGCGCUCUGCACAGACAACACGCUCAAUAAAAGUUCAGCCAUAGCAGCAAAACCCUGUGGCUGAGGUUCCUGUGUCCAGCACUCACUGGGGGCAA	0.282
UAGAUCCUGUUAACCGUGUCCUCUAAUUGUCUUUAUUUUAAUGCCAAAAGGAAGUGAUUAUGCAGCUGUGUGUAGAGUUUCAGAGCAAGUUCCUCAGCAGUGUAGAUGAA	0.495
GGUAAAUAAGGUUUUAAUUCAGAUCUAGAAGAAAGUAUUGUACGUUUGAAUGCAGAUUUUUAUCCACAGAUAGUUGUAGUGUUUAGACAUGACAGGACCUAUCGUUGAGG	0.546
AGUUUUCUGCUGGAUCUGGUGGGAAGGCAGCUCGGUAAAGUUUCCCUCCUGCUCCCCCCGCCCGACUUUGACUCUGAAUCAGCAUUUGGUCCUAUUCAGAGGACUCUUAC	0.358

Study 4
Target: MAFF, bZIP domain (human)
Method: DHFR protein complementation
Medium: yeast
Notes: single substitutions, most at no-binding floor
Relative to: wild-type JUN-FOS pair
Reading: higher = stronger binding
Parent: JUN, bZIP domain (human); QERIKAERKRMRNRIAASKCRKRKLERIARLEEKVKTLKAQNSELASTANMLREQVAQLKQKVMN; partner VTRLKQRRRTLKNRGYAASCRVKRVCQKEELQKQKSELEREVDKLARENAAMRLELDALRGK
Variant	binding fitness [natural log]
L45W	-1.51
N42D	-1.48
K36D	-1.43
A46W	-1.51
T48G	-1.47
E44V	-1.28
E54P	-1.46
L52T	-1.54

Repeated from above (study 4):
Variant	binding fitness [natural log]
E44V	-1.28
K36D	-1.43
E54P	-1.46
